Assay results collected from several papers.
Every numbered part comes from another study and shows a few of its results, in no order.
Chain of UniProt Q8NI60 (whole entry, looked up): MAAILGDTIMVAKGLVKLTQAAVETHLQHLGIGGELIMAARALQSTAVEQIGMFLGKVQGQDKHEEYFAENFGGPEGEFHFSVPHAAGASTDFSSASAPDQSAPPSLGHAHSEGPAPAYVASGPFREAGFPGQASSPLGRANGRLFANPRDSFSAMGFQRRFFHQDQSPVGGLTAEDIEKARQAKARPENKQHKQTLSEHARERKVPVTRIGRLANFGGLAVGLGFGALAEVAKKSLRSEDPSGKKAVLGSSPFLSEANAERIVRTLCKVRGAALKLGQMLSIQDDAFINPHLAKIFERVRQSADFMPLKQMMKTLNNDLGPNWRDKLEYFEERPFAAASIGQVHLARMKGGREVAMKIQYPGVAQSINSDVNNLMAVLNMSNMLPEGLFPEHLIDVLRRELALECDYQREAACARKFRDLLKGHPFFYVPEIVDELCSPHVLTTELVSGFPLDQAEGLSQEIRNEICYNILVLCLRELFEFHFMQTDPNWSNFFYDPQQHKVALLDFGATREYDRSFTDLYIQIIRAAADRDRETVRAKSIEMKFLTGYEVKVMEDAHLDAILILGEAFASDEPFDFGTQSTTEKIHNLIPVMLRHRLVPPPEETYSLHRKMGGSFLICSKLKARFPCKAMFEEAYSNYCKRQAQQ
Chain of UniProt Q9Y6R4 (whole entry, looked up): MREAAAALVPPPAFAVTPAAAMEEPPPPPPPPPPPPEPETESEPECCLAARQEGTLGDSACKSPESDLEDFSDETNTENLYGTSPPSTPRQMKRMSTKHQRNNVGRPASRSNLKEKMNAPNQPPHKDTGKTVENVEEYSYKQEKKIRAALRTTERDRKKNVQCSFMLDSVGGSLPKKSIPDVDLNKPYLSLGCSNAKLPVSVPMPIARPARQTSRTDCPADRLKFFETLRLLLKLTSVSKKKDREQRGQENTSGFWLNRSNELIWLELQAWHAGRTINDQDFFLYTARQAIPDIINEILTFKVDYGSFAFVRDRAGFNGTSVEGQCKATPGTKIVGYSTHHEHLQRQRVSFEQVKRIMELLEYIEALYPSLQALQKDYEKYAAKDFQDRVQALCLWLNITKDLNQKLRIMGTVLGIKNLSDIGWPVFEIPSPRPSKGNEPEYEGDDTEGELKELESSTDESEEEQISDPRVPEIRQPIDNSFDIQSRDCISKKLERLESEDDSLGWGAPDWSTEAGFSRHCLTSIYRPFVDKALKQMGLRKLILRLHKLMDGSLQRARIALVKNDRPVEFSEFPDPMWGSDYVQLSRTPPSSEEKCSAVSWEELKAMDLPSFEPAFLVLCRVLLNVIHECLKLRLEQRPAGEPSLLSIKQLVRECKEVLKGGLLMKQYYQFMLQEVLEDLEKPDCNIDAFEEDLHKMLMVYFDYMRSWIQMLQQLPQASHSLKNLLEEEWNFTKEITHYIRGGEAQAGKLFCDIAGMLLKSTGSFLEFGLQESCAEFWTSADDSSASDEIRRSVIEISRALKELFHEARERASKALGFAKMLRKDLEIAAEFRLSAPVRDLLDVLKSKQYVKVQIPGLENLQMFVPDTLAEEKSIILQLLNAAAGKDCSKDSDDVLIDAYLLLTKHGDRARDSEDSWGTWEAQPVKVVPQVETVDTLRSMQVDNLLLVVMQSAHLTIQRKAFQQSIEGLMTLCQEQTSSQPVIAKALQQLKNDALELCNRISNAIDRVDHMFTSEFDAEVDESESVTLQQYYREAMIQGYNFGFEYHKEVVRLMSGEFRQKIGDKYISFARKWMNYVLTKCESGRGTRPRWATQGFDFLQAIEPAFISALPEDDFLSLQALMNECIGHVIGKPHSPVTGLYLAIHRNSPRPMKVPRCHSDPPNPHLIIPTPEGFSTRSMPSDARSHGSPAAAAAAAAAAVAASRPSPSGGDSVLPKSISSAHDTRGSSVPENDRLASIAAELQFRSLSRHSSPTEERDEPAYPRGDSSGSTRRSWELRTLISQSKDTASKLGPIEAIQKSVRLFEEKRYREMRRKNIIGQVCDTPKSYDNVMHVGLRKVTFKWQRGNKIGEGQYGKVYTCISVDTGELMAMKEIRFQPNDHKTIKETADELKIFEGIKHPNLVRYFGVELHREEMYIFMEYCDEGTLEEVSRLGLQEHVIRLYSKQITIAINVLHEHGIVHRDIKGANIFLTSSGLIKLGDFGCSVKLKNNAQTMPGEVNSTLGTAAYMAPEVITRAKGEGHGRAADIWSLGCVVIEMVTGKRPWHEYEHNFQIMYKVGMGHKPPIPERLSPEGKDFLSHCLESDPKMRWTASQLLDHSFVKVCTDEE
Chain of UniProt Q9BRS2 (whole entry, looked up): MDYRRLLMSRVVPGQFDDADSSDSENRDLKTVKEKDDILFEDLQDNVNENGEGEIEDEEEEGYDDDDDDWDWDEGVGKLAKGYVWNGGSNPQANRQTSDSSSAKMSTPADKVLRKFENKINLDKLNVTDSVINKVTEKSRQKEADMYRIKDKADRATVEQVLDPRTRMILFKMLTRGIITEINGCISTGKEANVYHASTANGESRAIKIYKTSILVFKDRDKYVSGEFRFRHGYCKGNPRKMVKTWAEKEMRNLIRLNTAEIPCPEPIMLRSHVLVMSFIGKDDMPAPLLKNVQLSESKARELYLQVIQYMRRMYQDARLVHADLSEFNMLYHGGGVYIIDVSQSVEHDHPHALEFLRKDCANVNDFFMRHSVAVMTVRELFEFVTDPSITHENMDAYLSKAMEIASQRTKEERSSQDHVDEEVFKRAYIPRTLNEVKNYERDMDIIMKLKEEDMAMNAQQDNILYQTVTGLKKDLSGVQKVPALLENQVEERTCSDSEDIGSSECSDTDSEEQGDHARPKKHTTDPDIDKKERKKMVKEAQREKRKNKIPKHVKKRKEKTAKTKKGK
Chain of UniProt Q15831 (whole entry, looked up): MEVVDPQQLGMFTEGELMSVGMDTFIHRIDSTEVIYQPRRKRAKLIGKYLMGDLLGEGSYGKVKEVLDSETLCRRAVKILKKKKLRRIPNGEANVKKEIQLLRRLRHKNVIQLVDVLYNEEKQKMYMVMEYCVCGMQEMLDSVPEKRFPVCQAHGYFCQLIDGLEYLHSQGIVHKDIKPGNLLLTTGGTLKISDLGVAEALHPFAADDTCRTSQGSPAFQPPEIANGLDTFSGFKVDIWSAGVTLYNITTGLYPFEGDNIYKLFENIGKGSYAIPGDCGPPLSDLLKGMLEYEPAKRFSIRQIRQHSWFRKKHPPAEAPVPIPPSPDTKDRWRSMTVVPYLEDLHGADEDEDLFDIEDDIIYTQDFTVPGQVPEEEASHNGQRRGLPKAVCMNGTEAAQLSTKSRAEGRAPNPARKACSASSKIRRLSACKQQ
Chain of UniProt P11309 (whole entry, looked up): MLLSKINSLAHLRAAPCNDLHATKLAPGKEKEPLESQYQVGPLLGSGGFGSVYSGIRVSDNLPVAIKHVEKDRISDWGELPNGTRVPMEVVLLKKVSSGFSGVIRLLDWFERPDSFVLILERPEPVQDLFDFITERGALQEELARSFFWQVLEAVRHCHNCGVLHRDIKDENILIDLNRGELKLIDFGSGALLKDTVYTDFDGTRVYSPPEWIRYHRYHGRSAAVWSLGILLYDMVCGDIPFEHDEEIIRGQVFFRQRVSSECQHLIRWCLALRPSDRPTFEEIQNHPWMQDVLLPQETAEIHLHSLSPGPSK
Chain of UniProt Q02156 (whole entry, looked up): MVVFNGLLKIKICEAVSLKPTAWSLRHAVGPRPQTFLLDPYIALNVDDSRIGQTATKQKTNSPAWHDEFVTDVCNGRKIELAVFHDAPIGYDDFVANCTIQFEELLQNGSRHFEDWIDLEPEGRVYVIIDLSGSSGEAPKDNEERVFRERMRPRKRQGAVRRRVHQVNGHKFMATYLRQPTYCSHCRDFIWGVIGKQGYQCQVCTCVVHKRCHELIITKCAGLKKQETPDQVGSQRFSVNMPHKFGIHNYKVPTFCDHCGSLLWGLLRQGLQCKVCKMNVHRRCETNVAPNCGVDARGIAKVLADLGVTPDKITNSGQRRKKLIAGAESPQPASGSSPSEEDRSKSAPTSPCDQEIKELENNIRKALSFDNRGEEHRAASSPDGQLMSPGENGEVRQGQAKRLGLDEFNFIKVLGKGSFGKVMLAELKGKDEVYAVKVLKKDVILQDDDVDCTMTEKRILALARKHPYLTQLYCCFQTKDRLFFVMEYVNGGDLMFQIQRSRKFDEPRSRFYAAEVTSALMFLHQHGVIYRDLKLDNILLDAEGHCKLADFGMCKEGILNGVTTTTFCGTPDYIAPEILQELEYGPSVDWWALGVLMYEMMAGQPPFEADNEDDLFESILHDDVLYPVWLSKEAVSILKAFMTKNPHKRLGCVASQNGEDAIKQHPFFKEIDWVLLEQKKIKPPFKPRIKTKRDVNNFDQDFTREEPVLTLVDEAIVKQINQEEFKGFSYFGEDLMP

Block 1 — observed: binding; method: radioligand binding; concentration: 10 µM
Target: Sigma intracellular receptor 2 (TMEM97, Homo sapiens, UniProt Q5BJF2)
Chain of UniProt Q5BJF2 (whole entry, looked up): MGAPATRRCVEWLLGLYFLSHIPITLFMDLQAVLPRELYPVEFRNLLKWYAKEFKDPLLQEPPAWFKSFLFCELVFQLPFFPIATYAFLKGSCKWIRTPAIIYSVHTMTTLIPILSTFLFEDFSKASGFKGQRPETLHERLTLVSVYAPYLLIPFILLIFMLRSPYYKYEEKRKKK
Compound	inhibition
CN([C@@H]1CCc2c(CC(=O)O)c3cc(S(C)(=O)=O)ccc3n2C1)S(=O)(=O)c1ccc(F)cc1	-9.3%
CC1=C(C#N)C(c2ccc3c(c2)c(NC(=O)c2ccccc2C)nn3C)C(C#N)=C(C)N1	51.2%
CNC(=O)Nc1ccc2c(c1)[C@]1(CC2)OC(=O)N(CC(=O)N(Cc2ccc(F)cc2)[C@@H](C)C(F)(F)F)C1=O	55.5%
CC(C)CC(=O)N1CCc2nc(-c3ccc(Br)cc3)nc(N(C)Cc3ccccc3)c2C1	78.8%
O=C1c2ccc(Nc3ccc(F)cc3F)cc2CCc2ccc(OC[C@H](O)CO)cc21	53.1%
Cc1c[nH]c2nccc(Oc3c(F)cc(Nc4cc(Cl)nc(N)n4)cc3F)c12	31.9%
COc1cc(-c2cn(C3CCc4ccccc4N(CC(F)(F)F)C3=O)nn2)ccc1-n1ccc(C)n1 (centres unmarked)	72%
O=C(NC[C@@H]1[C@H]2CN(C(=O)OCc3cc(C(F)(F)F)cc(C(F)(F)F)c3)C[C@@H]12)c1ccc2[nH]nnc2c1	44.9%
O=C(Nc1cccnn1)N1CC(CC=Cc2cncc(Oc3ccc(C(F)(F)F)cn3)n2)C1	69%
Cc1cc(C)c(-n2ccn3nc(-c4cccnc4)cc23)cc1NC(=O)c1cc(C#N)cc(S(F)(F)(F)(F)F)c1	64.4%
CCOC(=O)c1cc2cc(-c3cc(C(=O)NCc4ccc(C(=O)O)cc4)nn3C)ccc2[nH]1	-10.3%
Cc1c(NC(=O)c2cc(C(N)=O)nc3cc(F)ccc23)c(C(F)(F)F)nn1Cc1ccc(C(C)(C)C)cc1	40.7%
COc1cccc(CNC(=O)c2nc3scc(COCc4ccc(C(=O)O)cc4)c3c(=O)[nH]2)c1	17.7%
Cc1cc(-n2nc(Cc3cc(F)cc(C(F)(F)F)c3)nc2C)ccc1C(N)=O	-7.3%

Block 2 — concentration: 1 µM
Compound: CN1CCN(C(=O)c2ccc(NC(=O)Nc3ccc(N(C)c4ccnc(Nc5ccc(CS(C)(=O)=O)cc5)n4)cc3)cc2)CC1
target	assay	conditions	scale	remaining binding [%]
CILK1 (Homo sapiens, UniProt Q9UPZ9)	competitive binding scan			44
STK32B (Homo sapiens, UniProt Q9NY57)	competitive binding panel, refers to: YANK2		relative to: vehicle	100
PRKACA (Homo sapiens, UniProt P17612)	competitive binding	PKAC-alpha		100
STK25 (Homo sapiens, UniProt O00506)	competitive binding panel, refers to: YSK1		relative to: vehicle	83
MARK4 (Homo sapiens, UniProt Q96L34)	competitive binding panel		relative to: vehicle	92
SNRK (Homo sapiens, UniProt Q9NRH2)	competitive binding panel		relative to: vehicle	78
COQ8A (Homo sapiens, UniProt Q8NI60)	competitive binding panel, refers to: ADCK3		relative to: vehicle	100
ROCK2 (Homo sapiens, UniProt O75116)	competitive binding panel		relative to: vehicle	1.5
CLK3 (Homo sapiens, UniProt P49761)	competitive binding panel		relative to: vehicle	95
PRKD2 (Homo sapiens, UniProt Q9BZL6)	competitive binding panel		relative to: vehicle	100
FGR (Homo sapiens, UniProt P09769)	competitive binding panel		relative to: vehicle	57
BMPR1A (Homo sapiens, UniProt P36894)	competitive binding panel		relative to: vehicle	32
ACVR1B (Homo sapiens, UniProt P36896)	competitive binding panel		relative to: vehicle	77

Block 3 — observed: enzyme activity; action: inhibitor; concentration: 0.5 µM; relative to: control
Target: Calcium/calmodulin-dependent protein kinase type 1G (CAMK1G, Homo sapiens, UniProt Q96NX5)
Chain of UniProt Q96NX5 (whole entry, looked up): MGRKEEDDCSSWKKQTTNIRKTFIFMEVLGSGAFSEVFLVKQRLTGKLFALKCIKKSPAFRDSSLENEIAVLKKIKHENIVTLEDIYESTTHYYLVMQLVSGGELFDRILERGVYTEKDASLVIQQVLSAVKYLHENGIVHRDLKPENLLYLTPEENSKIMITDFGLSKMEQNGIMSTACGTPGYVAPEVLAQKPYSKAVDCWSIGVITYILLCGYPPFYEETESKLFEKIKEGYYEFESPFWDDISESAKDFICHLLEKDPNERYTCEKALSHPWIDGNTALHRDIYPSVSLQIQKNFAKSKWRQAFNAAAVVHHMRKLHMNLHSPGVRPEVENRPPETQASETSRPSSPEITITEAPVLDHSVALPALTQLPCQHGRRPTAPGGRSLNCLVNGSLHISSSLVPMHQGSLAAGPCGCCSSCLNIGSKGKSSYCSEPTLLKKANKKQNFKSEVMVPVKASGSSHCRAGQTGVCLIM
Structure (SMILES)	remaining activity [%]
Cn1c2ccccc2c2c3c(c4c5ccccc5n(CCC#N)c4c21)CNC3=O	101
Cc1ccc(NC(=O)c2ccc(CN3CCN(C)CC3)cc2)cc1Nc1nc(-c2cccnc2)cs1	106
CO[C@H]1C[C@@H]2CC[C@@H](C)[C@@](O)(O2)C(=O)C(=O)N2CCCC[C@H]2C(=O)O[C@H]([C@H](C)C[C@@H]2CC[C@@H](O)[C@H](OC)C2)CC(=O)[C@H](C)/C=C(\C)[C@@H](O)[C@@H](OC)C(=O)[C@H](C)C[C@H](C)/C=C/C=C/C=C/1C	93
O=C(Nc1cccc(Nc2cc(Nc3cccc(C(F)(F)F)c3)ncn2)c1)C1CC1	96.9
O=c1c2ccccc2[nH]c(=S)n1CCN1CCC(=C(c2ccc(F)cc2)c2ccc(F)cc2)CC1	104
COc1cc2ncnc(Nc3ccc(F)c(Cl)c3)c2cc1OCCCN1CCOCC1	103
COc1cc2nccc(Oc3ccc(NC(=S)NC(=O)c4ccccc4C)cc3)c2cc1OC	99.5
O=C(O)c1ccc2c3c1cccc3c(=O)n1c3ccccc3nc21	99
OCC(O)CCON=C1C(c2c(O)[nH]c3ccccc23)=Nc2ccccc21 (centres unmarked)	102
CN(C)c1ccc(C=C2C(=O)Nc3ccccc32)cc1	99.9
O=C(CCCc1ccc(-c2ccccc2F)cc1)Nc1ccc(O)cc1	96.8
O=C1NC(=O)C(c2cn(CCCn3ccnc3)c3ccccc23)=C1Nc1ccccc1	84.6
Oc1ccc(-c2nc(-c3ccncc3)c(-c3ccc(F)cc3)[nH]2)cc1	98.5
CC(C)[C@H](CO)Nc1nc(Nc2cc(N)cc(Cl)c2)c2ncn(C(C)C)c2n1	105

Block 4 — action: inhibitor; concentration: 1 µM
Structure (SMILES): C=CC(=O)N1CCC[C@@H](n2nc(-c3ccc(Oc4ccccc4)cc3)c3c(N)ncnc32)C1
target	assay	inhibition
MAP3K4 (Homo sapiens, UniProt Q9Y6R4)	enzyme activity	24%
DAPK3 (Homo sapiens, UniProt O43293)	enzyme activity	3%
DCLK3 (Homo sapiens, UniProt Q9C098)	enzyme activity	0%
COQ8A (Homo sapiens, UniProt Q8NI60)	enzyme activity	4%
Tyrosine-protein kinase ABL1, phosphorylated (ABL1, Homo sapiens, UniProt P00519, Q252H)		47%
SBK1 (Homo sapiens, UniProt Q52WX2)	enzyme activity	40%
EIF2AK1 (Homo sapiens, UniProt Q9BQI3)	enzyme activity	44%
STK11 (Homo sapiens, UniProt Q15831)	enzyme activity	21%
RIOK1 (Homo sapiens, UniProt Q9BRS2)	enzyme activity	14%
PIM1 (Homo sapiens, UniProt P11309)	enzyme activity	0%
PRKCE (Homo sapiens, UniProt Q02156)		10%
DDR1 (Homo sapiens, UniProt Q08345)		26%

For quick reference, copied from above (block 3):
Structure (SMILES)	remaining activity [%]
O=c1c2ccccc2[nH]c(=S)n1CCN1CCC(=C(c2ccc(F)cc2)c2ccc(F)cc2)CC1	104
O=C1NC(=O)C(c2cn(CCCn3ccnc3)c3ccccc23)=C1Nc1ccccc1	84.6
COc1cc2ncnc(Nc3ccc(F)c(Cl)c3)c2cc1OCCCN1CCOCC1	103
Oc1ccc(-c2nc(-c3ccncc3)c(-c3ccc(F)cc3)[nH]2)cc1	98.5
CO[C@H]1C[C@@H]2CC[C@@H](C)[C@@](O)(O2)C(=O)C(=O)N2CCCC[C@H]2C(=O)O[C@H]([C@H](C)C[C@@H]2CC[C@@H](O)[C@H](OC)C2)CC(=O)[C@H](C)/C=C(\C)[C@@H](O)[C@@H](OC)C(=O)[C@H](C)C[C@H](C)/C=C/C=C/C=C/1C	93
